Measured values collected from several papers.
Each line is one published result; not all experiments were run side by side. ± marks the error that the study gave.
Cell line: MOLT-4

Structure (SMILES) | test | test system | conditions | how to read | endpoint | result
COc1ccc(OC)c(-c2nc3ccc(-c4nc5ccc(N6CCN(C)CC6)cc5[nH]4)cc3[nH]2)c1 | SRB |  | 10 µM, 48 h |  | growth percent | 77.7%
O=C1NC(=NCc2cccs2)S/C1=C\c1ccc2ncccc2c1 | cytotoxicity, MTS | NCI60 panel | acute lymphoblastic leukaemia |  | IC50 | 5.2 µM
C#C[C@@]1(O)[C@@H](CO)O[C@@H](n2cc(F)c3c(N)ncnc32)[C@@H]1O | SRB |  | NCI-60 screen |  | TGI | > 100 µM
S=C([S][Au-][P+](CCCCCC[P+]([Au-][S]C(=S)n1cccn1)(c1ccccc1)c1ccccc1)(c1ccccc1)c1ccccc1)n1cccn1 | cell growth, NCI-60 screen |  | leukemia |  | log10 TGI | -4.49
O=c1ccn(Cc2cn(-c3cc4ccccc4oc3=O)nn2)c(=O)[nH]1 | NCI60 single-dose screen |  | 10 µM |  | growth percentage | 92.1%
COc1cc(OC)cc(C(=O)c2cc3c(-c4ccccc4)c(O)ccc3o2)c1 | cell proliferation |  | 72 h |  | IC50 | 12 ± 1 µM
NNc1nc(-c2ccc(Cl)cc2)c2c(NC(=O)c3ccccc3)nnc-2[nH]1 | SRB |  | 10 µM, NCI60 single-dose screen | reference: untreated | cell growth | 107%
COc1ccccc1C(=O)c1cc2c(-c3ccccc3)c(O)ccc2o1 | cell proliferation |  | 72 h |  | IC50 | 13 ± 1 µM
Cc1cc(=O)[nH]c(=O)n1Cc1cn(-c2c3ccccc3nc3ccccc23)nn1 | NCI60 single-dose screen |  | 10 µM |  | growth percentage | 48.5%
COc1cccc(C(=O)c2cc3c(-c4ccccc4)c(OC)ccc3o2)c1 | cell proliferation |  | 72 h |  | IC50 | 4.8 ± 1.1 µM
CCCCN1CCN(c2ccc3[nH]c(-c4ccc5[nH]c(-c6ccc(C(F)(F)F)cc6)nc5c4)nc3c2)CC1 | SRB |  | 10 µM, 48 h |  | growth percent | -61%
COc1cnc2cccc(N3CCc4c(cc(Cn5ccnc5C)cc4-c4cn(C)nc4C(F)(F)F)C3=O)c2c1 | cell growth, inhibitor |  | 120 h |  | EC50 | 31.4 µM
Cn1cncc1C1=CN(c2ncnc3[nH]cnc23)CCS1 |  |  | leukemia |  | TGI | 93.3 µM
CN1CCN(c2ccc3[nH]c(-c4ccc5[nH]c(-c6ccc(C(F)(F)F)cc6)nc5c4)nc3c2)CC1 | SRB |  | 10 µM, 48 h |  | growth percent | 47.2%
O=C(Nc1nnc2n3c(nc(-c4ccc(Cl)cc4)c1-2)SCC3=O)c1ccccc1 | SRB |  | 10 µM, NCI60 single-dose screen | reference: untreated | cell growth | 106%
CCCN1CCN(c2ccc3nc(-c4ccc5nc(-c6cc(OC)ccc6OC)[nH]c5c4)[nH]c3c2)CC1 | SRB |  | 10 µM, 48 h |  | growth percent | 77%
O=C1NC(c2ccccc2)(c2ccccc2)C(=O)N1Cc1cn(-c2cc3ccccc3oc2=O)nn1 | NCI60 single-dose screen |  | 10 µM |  | growth percentage | 90.6%
CCOC(=O)CSc1nc(-c2ccc(Cl)cc2)c2c(NC(=O)c3ccccc3)nnc-2[nH]1 | SRB |  | 10 µM, NCI60 single-dose screen | reference: untreated | cell growth | 99.5%

For quick reference, copied from above:
Structure (SMILES) | test | test system | conditions | how to read | endpoint | result
COc1cc(OC)cc(C(=O)c2cc3c(-c4ccccc4)c(O)ccc3o2)c1 | cell proliferation |  | 72 h |  | IC50 | 12 ± 1 µM
NNc1nc(-c2ccc(Cl)cc2)c2c(NC(=O)c3ccccc3)nnc-2[nH]1 | SRB |  | 10 µM, NCI60 single-dose screen | reference: untreated | cell growth | 107%
